Results gathered from unrelated publications.
Protocols differ between the studies behind these lines.
Target: D(2) dopamine receptor (DRD2, Homo sapiens, UniProt P14416)
UniProt P14416, sequence (whole entry, looked up): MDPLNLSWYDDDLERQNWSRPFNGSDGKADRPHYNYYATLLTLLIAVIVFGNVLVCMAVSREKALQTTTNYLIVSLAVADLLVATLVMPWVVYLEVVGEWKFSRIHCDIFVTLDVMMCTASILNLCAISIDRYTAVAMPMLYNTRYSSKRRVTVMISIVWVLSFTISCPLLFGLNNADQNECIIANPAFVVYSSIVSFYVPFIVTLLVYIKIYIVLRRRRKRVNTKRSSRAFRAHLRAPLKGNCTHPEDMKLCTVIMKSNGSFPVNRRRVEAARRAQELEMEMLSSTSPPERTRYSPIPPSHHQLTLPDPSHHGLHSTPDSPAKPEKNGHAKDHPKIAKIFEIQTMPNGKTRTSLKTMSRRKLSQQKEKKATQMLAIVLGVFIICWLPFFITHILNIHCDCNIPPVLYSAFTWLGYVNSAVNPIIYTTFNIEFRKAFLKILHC

| SMILES | test | conditions | scale | quantity | value |
| --- | --- | --- | --- | --- | --- |
| CN[C@]1(c2ccccc2Cl)CCCCC1=O | radioligand binding, antagonist, radioligand displacement | 30 µM, short isoform | – | inhibition | 7% |
| CC(C)N1CCC[C@H]1CNC(=O)c1cn(C2CCCC2)c(=O)c2c1c1ccccc1n2C | radioligand binding | 10 µM | – | inhibition | 8% |
| CN1CCN(c2cc(-c3ccncc3)c(-c3ccc4ccccc4c3)nn2)CC1 | antagonist, FLIPR | 10 µM | – | inhibition | -2.2% |
| O=c1ccc2ccccc2o1 | agonist radioligand binding | 10 µM, SafetyScreen44 | – | inhibition | -7.44% |
| COCc1c(-c2cc3cc(C)cc(OC)c3s2)c2c(N)ncnn2c1CN1CCNC(=O)C1 | binding, radioligand binding | 10 µM | – | inhibition | 16% |
| Cn1cccc1-c1cccnc1 | binding | 50 µM | – | inhibition | -11.8% |
| CCCC[C@@H](NC(=O)[C@@H](N)Cc1ccc(O)cc1)C(=O)NCC(=O)N[C@@H](Cc1ccc(F)cc1)C(=O)N(C)CCC[C@@]1(c2ccc(F)cc2)OCc2cc(C#N)ccc21 | – | 10 µM | – | inhibition | < 50% |
| Nc1ncc(-c2nc(N3CCOCC3)nc(N3CCOCC3)n2)c(C(F)F)n1 | radioligand binding, agonist ligand | 10 µM | – | remaining binding | 118% |
| C[C@@H](NC(=O)[C@@H](N)Cc1ccc(O)cc1)C(=O)NCC(=O)N[C@@H](Cc1ccccc1)C(=O)N(C)CCC[C@@]1(c2ccc(F)cc2)OCc2cc(C#N)ccc21 | – | 10 µM | – | inhibition | < 50% |
| CC(C)CC(=O)OC[C@H]1O[C@@](C#N)(c2ccc3c(N)ncnn23)[C@H](O)[C@@H]1O | – | 20 µM | – | inhibition | -2% |
| CCN(CC)CCCC[C@H](NC(=O)[C@H](CC(C)C)NC(=O)[C@H](C)NC(=O)[C@H](Cc1ccccc1)NC(=O)c1ccc(C(C)(C)C)cc1)C(=O)N[C@@H](CO)C(=O)OC | antagonist, radioligand binding | 10 µM | reference: control binding | specific binding | 60.5% |

For quick reference, copied from above:
| SMILES | test | conditions | scale | quantity | value |
| --- | --- | --- | --- | --- | --- |
| O=c1ccc2ccccc2o1 | agonist radioligand binding | 10 µM, SafetyScreen44 | – | inhibition | -7.44% |
